# Experimental data from different studies.
# Several values in a cell are separate wells, animals, samples, runs or records. Numbers after ± are the reported error.
# CASP6: Caspase-6 (CASP6, Homo sapiens, UniProt P55212)
# UniProt P55212, sequence (whole entry, looked up): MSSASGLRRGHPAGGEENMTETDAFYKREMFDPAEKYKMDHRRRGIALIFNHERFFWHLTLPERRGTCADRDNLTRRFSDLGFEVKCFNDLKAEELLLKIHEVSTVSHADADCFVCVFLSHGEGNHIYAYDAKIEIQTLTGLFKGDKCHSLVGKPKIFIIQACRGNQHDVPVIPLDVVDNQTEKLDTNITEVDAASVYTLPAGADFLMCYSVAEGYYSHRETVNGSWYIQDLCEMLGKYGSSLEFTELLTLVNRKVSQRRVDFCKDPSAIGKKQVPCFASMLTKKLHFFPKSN
# TDP1: Tyrosyl-DNA phosphodiesterase 1 (TDP1, Homo sapiens, UniProt Q9NUW8)
# UniProt Q9NUW8, sequence (whole entry, looked up): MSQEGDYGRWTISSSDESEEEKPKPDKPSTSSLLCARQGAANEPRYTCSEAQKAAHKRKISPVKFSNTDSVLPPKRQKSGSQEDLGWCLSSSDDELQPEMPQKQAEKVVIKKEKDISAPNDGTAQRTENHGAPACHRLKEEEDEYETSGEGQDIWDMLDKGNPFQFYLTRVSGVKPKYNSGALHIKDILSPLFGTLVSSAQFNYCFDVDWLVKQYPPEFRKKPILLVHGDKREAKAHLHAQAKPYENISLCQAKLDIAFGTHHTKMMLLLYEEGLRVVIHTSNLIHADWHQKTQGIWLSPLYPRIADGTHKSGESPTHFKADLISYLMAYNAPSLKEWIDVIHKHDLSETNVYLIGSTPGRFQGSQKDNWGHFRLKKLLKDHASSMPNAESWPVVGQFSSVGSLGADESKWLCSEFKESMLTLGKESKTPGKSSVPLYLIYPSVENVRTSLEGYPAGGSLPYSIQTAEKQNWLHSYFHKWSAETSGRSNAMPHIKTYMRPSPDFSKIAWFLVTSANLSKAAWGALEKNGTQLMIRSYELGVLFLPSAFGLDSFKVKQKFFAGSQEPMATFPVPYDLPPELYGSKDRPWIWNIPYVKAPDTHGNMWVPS
# Gria1: Glutamate receptor 1 (Gria1, Rattus norvegicus, UniProt P19490)
# UniProt P19490, sequence (whole entry, looked up): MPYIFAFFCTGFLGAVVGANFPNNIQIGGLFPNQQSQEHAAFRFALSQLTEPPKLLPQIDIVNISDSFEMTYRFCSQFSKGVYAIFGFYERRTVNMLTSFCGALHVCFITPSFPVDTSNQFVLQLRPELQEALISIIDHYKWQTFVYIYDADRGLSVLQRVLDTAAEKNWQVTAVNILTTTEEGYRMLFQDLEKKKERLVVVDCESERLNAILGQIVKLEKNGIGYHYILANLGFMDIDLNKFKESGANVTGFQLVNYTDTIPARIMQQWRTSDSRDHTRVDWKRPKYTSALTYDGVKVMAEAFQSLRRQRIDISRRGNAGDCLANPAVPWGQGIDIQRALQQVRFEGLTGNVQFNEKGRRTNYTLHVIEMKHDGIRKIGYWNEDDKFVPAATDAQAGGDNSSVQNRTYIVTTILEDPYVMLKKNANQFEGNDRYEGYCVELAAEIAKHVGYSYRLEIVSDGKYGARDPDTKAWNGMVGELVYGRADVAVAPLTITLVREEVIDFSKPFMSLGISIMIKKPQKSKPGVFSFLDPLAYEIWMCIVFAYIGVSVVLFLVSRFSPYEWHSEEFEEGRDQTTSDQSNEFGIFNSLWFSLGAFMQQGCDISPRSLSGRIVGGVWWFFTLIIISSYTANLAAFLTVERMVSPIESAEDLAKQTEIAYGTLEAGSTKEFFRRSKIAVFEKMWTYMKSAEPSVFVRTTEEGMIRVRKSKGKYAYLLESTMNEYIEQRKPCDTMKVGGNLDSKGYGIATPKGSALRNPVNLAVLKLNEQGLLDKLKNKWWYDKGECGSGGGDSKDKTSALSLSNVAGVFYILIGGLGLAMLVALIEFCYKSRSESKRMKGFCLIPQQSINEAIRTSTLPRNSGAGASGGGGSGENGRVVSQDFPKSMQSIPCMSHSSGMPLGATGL
# T1: dsDNA, duplex; chain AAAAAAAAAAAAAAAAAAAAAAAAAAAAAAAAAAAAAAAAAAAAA; chain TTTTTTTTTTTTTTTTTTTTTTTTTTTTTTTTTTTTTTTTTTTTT
# UniProt P46089, sequence (whole entry, looked up): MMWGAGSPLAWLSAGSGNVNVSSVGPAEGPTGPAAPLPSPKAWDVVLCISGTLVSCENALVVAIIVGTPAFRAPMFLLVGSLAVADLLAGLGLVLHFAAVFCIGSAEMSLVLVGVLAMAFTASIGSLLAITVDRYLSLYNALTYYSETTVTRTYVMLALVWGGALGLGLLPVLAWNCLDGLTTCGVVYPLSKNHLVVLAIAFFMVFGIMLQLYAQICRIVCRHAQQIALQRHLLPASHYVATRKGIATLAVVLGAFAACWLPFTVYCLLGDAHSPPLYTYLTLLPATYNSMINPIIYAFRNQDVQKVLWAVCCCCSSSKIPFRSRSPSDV
# UniProt O75909, sequence (whole entry, looked up): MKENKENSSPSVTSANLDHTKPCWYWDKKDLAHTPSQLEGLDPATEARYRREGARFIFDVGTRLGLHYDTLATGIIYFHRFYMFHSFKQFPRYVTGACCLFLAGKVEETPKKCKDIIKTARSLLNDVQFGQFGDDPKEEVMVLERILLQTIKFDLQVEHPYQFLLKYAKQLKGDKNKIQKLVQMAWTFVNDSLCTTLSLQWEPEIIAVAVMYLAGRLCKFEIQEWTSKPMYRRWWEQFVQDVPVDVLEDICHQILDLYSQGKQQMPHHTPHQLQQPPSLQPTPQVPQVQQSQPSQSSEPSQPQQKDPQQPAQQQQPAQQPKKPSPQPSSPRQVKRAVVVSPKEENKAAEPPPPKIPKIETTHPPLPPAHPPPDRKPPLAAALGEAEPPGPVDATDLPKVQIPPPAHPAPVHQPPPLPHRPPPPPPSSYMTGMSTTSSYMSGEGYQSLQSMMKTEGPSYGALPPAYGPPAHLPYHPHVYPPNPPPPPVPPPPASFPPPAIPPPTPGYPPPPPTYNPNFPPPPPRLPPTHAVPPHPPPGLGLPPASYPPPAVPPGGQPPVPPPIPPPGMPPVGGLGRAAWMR
# UniProt Q9CAJ0, sequence (whole entry, looked up): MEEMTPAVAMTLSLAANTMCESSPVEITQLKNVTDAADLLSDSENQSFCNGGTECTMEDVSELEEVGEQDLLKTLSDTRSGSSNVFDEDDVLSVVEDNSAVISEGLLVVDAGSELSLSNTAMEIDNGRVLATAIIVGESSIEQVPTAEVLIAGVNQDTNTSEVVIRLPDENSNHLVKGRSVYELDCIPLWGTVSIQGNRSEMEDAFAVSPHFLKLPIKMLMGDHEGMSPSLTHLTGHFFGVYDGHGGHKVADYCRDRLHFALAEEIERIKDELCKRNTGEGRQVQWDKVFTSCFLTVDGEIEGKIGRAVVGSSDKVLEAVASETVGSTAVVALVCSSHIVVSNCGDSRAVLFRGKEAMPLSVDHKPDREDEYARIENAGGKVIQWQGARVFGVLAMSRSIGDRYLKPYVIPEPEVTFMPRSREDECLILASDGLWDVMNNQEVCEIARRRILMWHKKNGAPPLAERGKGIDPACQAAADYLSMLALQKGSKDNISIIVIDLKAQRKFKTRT
# UniProt P35821, sequence (whole entry, looked up): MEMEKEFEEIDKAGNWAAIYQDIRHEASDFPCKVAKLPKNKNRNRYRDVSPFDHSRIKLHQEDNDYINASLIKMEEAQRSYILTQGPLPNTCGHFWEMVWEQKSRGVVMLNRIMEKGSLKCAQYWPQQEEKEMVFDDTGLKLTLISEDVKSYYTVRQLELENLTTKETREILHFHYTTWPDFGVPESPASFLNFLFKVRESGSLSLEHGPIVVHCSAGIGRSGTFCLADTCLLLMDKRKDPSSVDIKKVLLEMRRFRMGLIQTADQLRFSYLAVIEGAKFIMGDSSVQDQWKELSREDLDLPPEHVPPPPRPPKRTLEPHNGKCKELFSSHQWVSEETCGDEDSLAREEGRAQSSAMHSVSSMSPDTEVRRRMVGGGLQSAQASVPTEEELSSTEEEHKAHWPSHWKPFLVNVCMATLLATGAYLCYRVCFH
# UniProt P00519, sequence (whole entry, unmodified, looked up): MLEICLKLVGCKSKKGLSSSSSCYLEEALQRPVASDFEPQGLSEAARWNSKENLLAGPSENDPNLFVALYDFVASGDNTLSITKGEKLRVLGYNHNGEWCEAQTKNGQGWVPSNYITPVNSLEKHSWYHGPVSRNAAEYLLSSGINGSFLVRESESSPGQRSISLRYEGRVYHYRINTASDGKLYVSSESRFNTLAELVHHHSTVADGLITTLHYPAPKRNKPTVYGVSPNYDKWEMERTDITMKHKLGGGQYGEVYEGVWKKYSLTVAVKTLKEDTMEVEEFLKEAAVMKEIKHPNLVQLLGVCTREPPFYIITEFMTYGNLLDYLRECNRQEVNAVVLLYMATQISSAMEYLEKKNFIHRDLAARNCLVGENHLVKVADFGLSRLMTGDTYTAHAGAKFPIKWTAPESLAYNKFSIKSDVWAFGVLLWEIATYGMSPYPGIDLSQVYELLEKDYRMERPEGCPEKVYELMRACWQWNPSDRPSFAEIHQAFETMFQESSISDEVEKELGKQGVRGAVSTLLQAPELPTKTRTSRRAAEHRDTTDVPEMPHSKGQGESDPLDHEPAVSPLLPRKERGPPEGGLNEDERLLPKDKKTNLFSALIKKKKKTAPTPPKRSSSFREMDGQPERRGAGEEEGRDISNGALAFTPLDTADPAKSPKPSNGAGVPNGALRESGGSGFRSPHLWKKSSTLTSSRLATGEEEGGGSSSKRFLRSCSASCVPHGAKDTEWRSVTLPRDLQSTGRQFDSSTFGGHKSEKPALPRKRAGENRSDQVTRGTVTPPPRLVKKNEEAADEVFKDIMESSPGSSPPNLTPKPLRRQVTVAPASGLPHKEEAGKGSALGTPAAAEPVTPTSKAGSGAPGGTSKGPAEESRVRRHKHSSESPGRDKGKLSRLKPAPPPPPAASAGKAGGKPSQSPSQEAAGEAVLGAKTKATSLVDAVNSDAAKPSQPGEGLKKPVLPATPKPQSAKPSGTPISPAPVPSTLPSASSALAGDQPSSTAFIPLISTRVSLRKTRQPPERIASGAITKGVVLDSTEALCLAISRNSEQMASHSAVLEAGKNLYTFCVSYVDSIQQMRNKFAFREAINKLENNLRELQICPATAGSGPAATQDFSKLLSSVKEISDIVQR
# UniProt P0A7A9, sequence (whole entry, looked up): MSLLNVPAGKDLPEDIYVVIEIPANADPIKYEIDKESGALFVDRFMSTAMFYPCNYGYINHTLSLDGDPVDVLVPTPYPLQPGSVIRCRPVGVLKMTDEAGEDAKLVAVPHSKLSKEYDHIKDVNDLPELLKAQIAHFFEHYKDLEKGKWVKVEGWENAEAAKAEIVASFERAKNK
SMILES,target,assay,system,conditions,scale,quantity,result
FC(F)(F)c1cccc(Nc2nc(NC3CCCCC3)c3ccccc3n2)c1,"ADRB2 (Homo sapiens, UniProt P07550)","β-arrestin2 recruitment, PathHunter and GloSensor",,,reference: GloSensor IC50 over PathHunter IC50,bias factor,3 fold
Cc1cnc2nc1Nc1cccc(c1)COC/C=C/COCc1cc(ccc1OCCN1CCOCC1)N2,"ABL1 (Homo sapiens, UniProt P00519, M351T)",binding,,0.1 µM,,remaining binding,59%
CCCCCCCCn1c(CC)c(C)[n+](CCCCCCCC)c1CCC,"T1, dsDNA, duplex",gel retardation,,"60-1500 µM, 2 h, K+ 100 mM",,binding,binds
CCCCCCCO[C@H]1CO[C@H](CO)[C@@H](O)[C@H](O)[C@@H]1O,"Type 1 fimbrin D-mannose specific adhesin, lectin domain (fimH, Escherichia coli K-12, UniProt P08191)",isothermal titration calorimetry,,"concentration not given, 15 °C",,binding stoichiometry,1.02 ± 0.02
O=[N+]([O-])c1cc(Br)cc([N+](=O)[O-])c1NS(=O)(=O)c1ccc(Br)cc1,"HAB1 (Arabidopsis thaliana, UniProt Q9CAJ0)",inhibitor,,"200 µM, no PYL receptor",higher = more activity,phosphatase activity,0.718 a.u. and 0.827 a.u. and 0.75 a.u.
Cn1c(=O)n(C2CCC(=O)NC2=O)c2ccc(C3CCN(CC(=O)Nc4cccc(CS(=O)(=O)N5CC[C@H](Nc6cccc(-c7sc(C(=O)O)c(OCC(=O)O)c7Cl)c6)CC5(C)C)c4)CC3)cc21 (some centres unmarked),"Tyrosine-protein phosphatase non-receptor type 1 (Mus musculus, UniProt P35821)","degrader, Western blot",B16-F10,"1 µM, together with: bortezomib 10 µM pretreatment",,remaining protein,63% and 92%
CCCCCCCCCCCCC/C=C/C=O,"NIT1 (Homo sapiens, UniProt Q86X76)",competitive isoTOP-ABPP,Ramos soluble proteome,"100 µM, 60 min, together with: iodoacetamide probe","reference: DMSO over compound-treated, higher = stronger cysteine blockade",isoTOP-ABPP competition ratio,1.2
CC(=O)N[C@@H](CC(=O)O)C(=O)N[C@@H](Cc1ccc(I)cc1)C(=O)N[C@@H](C)C(=O)N[C@@H](CC(=O)O)C(=O)COC(=O)c1c(C)cccc1C,CASP6,"enzyme activity, inhibitor",,,,kinact/KI,3200 M⁻¹ s⁻¹
CC(C)[C@@H]1NC(=O)[C@H](Cc2ccccc2)NC(=O)CSC[C@@H](C(N)=O)NC(=O)[C@H](CCC(=O)O)NC(=O)[C@H](CO)NC(=O)[C@H](Cc2c[nH]c3cccc(Cl)c23)NC(=O)[C@H](C2CCCCC2)NC(=O)[C@H](C(C)C)NC(=O)[C@H](Cc2ccc(O)cc2)NC(=O)[C@H](CC(=O)O)NC(=O)[C@H](Cc2c[nH]c3ccccc23)NC(=O)[C@H](Cc2ccc(N)nc2)NC(=O)[C@H](Cc2c[nH]c3ccc(Cl)cc23)NC(=O)[C@H](CCC(=O)O)NC1=O,"IL1R1 (Homo sapiens, UniProt P14778)","IL-8 release, antagonist",A-431,"20 µM, 18 h, together with: IL-1β 5 ng/mL",reference: untreated,remaining activity,126%
NC(=O)c1cccc(CN(C(=O)NC(CN2CCCCC2)c2ccccc2)C(CN2CCCCC2)c2ccccc2)c1 (centres unmarked),"OPRK1 (Homo sapiens, UniProt P41145)",Gi signalling,,,reference: reference agonist,delta log(tau/KA),-0.84
C=C1C[C@@]2(C(=O)OC)C=C(C(=O)Nc3cccc(C(=O)Nc4ccc(Nc5nccc(-c6cccnc6)n5)c(C)c4)c3)C(=O)[C@@H]1C2,"MAPK8 (Homo sapiens, UniProt P45983, C116S)","binding, SPR",,"100, 300, 1000 nM, 1:1 binding model",,kon,376000 M⁻¹ s⁻¹
O=C(O)c1ccc(Nc2c(-c3ccc(CON=Cc4c(N5CCCC5)nc5ccccn45)cc3)nc3cc(-c4ccccc4)ccn23)cc1,TDP1,"enzyme activity, inhibitor",,"100 µM, unpurified compound",,inhibition,85.4%
Cc1ccc(S(=O)(=O)N2CC(NC(=O)c3ccccc3)C2=O)cc1 (centres unmarked),"glpG (Escherichia coli, UniProt P09391)","enzyme activity, inhibitor, gel-based chimeric protein substrate",,,,IC50,inactive
CCCCCC(O)/C=C/C=O (centres unmarked),"CPSF3 (Homo sapiens, UniProt Q9UKF6)",competitive isoTOP-ABPP,Ramos soluble proteome,"100 µM, together with: iodoacetamide probe","reference: DMSO over compound-treated, higher = stronger cysteine blockade",isoTOP-ABPP competition ratio,1.7
O=C(O)Cc1cc2c(cc1C(=O)c1ccccc1I)OCO2,Gria1,whole-cell patch clamp,HEK-293T,"concentration not given, together with: glutamate",,deactivation time constant,3.1 ± 0.1 ms
O=C(O)c1ccc(Nc2c(-c3ccccc3)nc3ccc(CON=Cc4ccc(OC5=NS(=O)(=O)c6ccccc65)cc4)cn23)cc1 (mixture of isomers),TDP1,"enzyme activity, inhibitor",,"100 µM, unpurified compound",,inhibition,14.5%
C[C@@H](Nc1nc(N[C@H](C)C(F)(F)F)nc(-c2cccc(Cl)n2)n1)C(F)(F)F,"IDH1 (Homo sapiens, UniProt O75874, R132L)",,,1 h preincubation,,maximum inhibition,80 ± 1%
N[C@@H](Cc1c[nH]c2ccc(OCc3ccccc3)cc12)C(=O)O,"SLC7A5 (Homo sapiens, UniProt Q01650)",[3H]-L-leucine uptake,HT-29,,,Hill slope,-0.672
N#CN1CC[C@H](C(=O)Nc2nc3c(s2)CN(C(=O)CN=[N+]=[N-])CC3)C1,"Cofilin-1 (Homo sapiens, UniProt P23528)",click pull-down LC-MS/MS,HEK293T cells,,,total spectral count,2
COc1ccc(-c2ccc(C=NOCc3ccc(-c4nc5cc(-c6ccccc6)ccn5c4Nc4ccc(C(=O)O)cc4)cc3)s2)cc1 (mixture of isomers),TDP1,"enzyme activity, inhibitor",,"100 µM, unpurified compound",,inhibition,26.5%
CC(=O)N1[C@H](C(=O)N[C@H](C(=O)N[C@@H](Cc2c[nH]cn2)C(=O)N[C@@H](CC(=O)O)C(=O)COC(=O)c2c(C)cccc2C)C(C)(C)C)C[C@@H]2CCCC[C@@H]21,CASP6,"enzyme activity, inhibitor",,,,kinact/KI,900 M⁻¹ s⁻¹
O=C(O)c1ccc(Nc2c(-c3ccc(CON=Cc4cccn4Cc4cnc(Cl)s4)cc3)nc3cc(-c4ccccc4)ccn23)cc1 (mixture of isomers),TDP1,"enzyme activity, inhibitor",,"100 µM, unpurified compound",,inhibition,39.1%
CCCCOc1ccc(C(=O)OCCN2CC=CCC2)cc1,"CHRM3 (Homo sapiens, UniProt P20309)",,membranes,"10 µM, 15 h, no carbachol",reference: control,basal binding,1.03 ± 0.03 fold
CC(=O)N1CCC[C@H]1C(=O)N[C@@H](CCC(N)=O)C(=O)N[C@@H](C)C(=O)N[C@@H](CC(=O)O)C(=O)COC(=O)c1c(C)cccc1C,CASP6,"enzyme activity, inhibitor",,,,kinact/KI,4800 M⁻¹ s⁻¹
CC[C@H](C)[C@@H]1NC(=O)[C@H](Cc2c[nH]c3ccccc23)NC(=O)[C@H](Cc2ccccc2)N(C)C(=O)[C@H](C(C)C)NC(=O)[C@H](CC(C)C)NC(=O)[C@H](Cc2ccccc2)NC(=O)CSC[C@@H](C(=O)N[C@@H](CC(N)=O)C(N)=O)NC(=O)[C@H](Cc2ccccc2)NC1=O,"Bromodomain-containing protein 4, BD1 (BRD4, Homo sapiens, UniProt O60885)","thermal stability, DSF",,50 µM,,ΔTm,0.41 °C
CC(=O)N[C@@H](CC(C)C)C(=O)N[C@@H](CCC(=O)O)C(=O)N[C@H](C(=O)N[C@@H](CC(=O)O)C(=O)COC(=O)c1c(C)cccc1C)[C@@H](C)OCc1ccccc1,CASP6,"enzyme activity, inhibitor",,,,kinact/KI,351000 M⁻¹ s⁻¹
CCCCCC=CC=C1C(=O)C=CC1CC=CCCCC(=O)O (centres unmarked),"Disks large-associated protein 5 (DLGAP5, Homo sapiens, UniProt Q15398)","competitive isoTOP-ABPP, item: DLG7 cysteine peptide",Ramos soluble proteome,"100 µM, together with: iodoacetamide probe","reference: DMSO over compound-treated, higher = stronger cysteine blockade",isoTOP-ABPP competition ratio,1.5
COC(=O)Cc1cc2c(cc1C(=O)c1ccccc1Cl)OCO2,Gria1,"glutamate-evoked current, whole-cell patch clamp",HEK-293T,"concentration not given, glutamate alone after washout, together with: glutamate",,current amplitude after recovery,862 ± 38 pA
CC(C)(C)S(=O)(=O)c1ccccc1C=NOCc1ccc2nc(-c3ccccc3)c(Nc3ccc(C(=O)O)cc3)n2c1 (mixture of isomers),TDP1,"enzyme activity, inhibitor",,"100 µM, unpurified compound",,inhibition,5.5%
O=C1c2sc(-c3ccc(N4CCC(CO)CC4)nc3F)nc2CCN1c1cccnc1,"ADRB3 (Homo sapiens, UniProt P13945)","ligand displacement, radioligand",,1 µM,,inhibition,-15%
Cn1cc(-c2cc(N3CCCCS3(=O)=O)ccc2N[C@H]2CC[C@H](C)CC2)c2cc[nH]c2c1=O (stereo in doubt),"Protein polybromo-1, bromodomain 2 (PBRM1, Homo sapiens, UniProt Q86U86)",bromodomain binding screen,,1 µM,lower is stronger binding,remaining binding,97%
Cc1ccc(C)c(C2=Nn3c(nnc3C3CCCCC3)SC2C)c1 (centres unmarked),"Uncharacterized protein (Trypanosoma brucei brucei, UniProt Q386Q8)","inhibitor, coupled colorimetric",Trypanosoma brucei,,,Hill slope,0.67
CC(C)NCCCn1c(Sc2cc3c(cc2I)OCO3)nc2c(N)ncnc21,"HSP90AA1/HSP90B1 (Homo sapiens, UniProt P07900+P41148, E62I/S52A/Y61L)",ITC,,concentration not given,,binding stoichiometry,0.95 ± 0.1
CNc1cc(N)c(C(N)=O)c[n+]1C,"Nicotinamide N-methyltransferase, SAH-bound (NNMT, Homo sapiens, UniProt P40261)",,,from pKd,,ligand efficiency,1
Cc1ccc2nc(Cl)c(C=NOCc3ccc(-c4nc5cc(-c6ccccc6)ccn5c4Nc4ccc(C(=O)O)cc4)cc3)cc2c1,TDP1,"enzyme activity, inhibitor",,"100 µM, unpurified compound",,inhibition,79.6%
Cc1cc(=O)oc2cc(NC(=O)CCCCCCCC(=O)NO)ccc12,"HDAC8 (Homo sapiens, UniProt Q9BY41)",ITC,triethanolamine buffer,"concentration not given, pH 7.5",,binding stoichiometry,0.81
Cc1nc2sccn2c1C=NOCc1ccc2nc(-c3ccccc3)c(Nc3ccc(C(=O)O)cc3)n2c1,TDP1,"enzyme activity, inhibitor",,"100 µM, unpurified compound",,inhibition,15.2%
CC(=O)N[C@@H](CC(=O)O)C(=O)N[C@@H](CCC(=O)O)C(=O)N[C@H](C(=O)N[C@@H](CC(=O)O)C(=O)COC(=O)c1c(C)cccc1C)C(C)C,CASP6,"enzyme activity, inhibitor",,,,kinact/KI,330000 M⁻¹ s⁻¹
CC(C)Oc1cc(Cl)ccc1CNc1cc(-c2ccccc2)nc2ncnn12,"GPR3 (Homo sapiens, UniProt P46089)",cAMP reporter,human cells,10 nM,higher is more cAMP,cAMP luminescence,60700 a.u. and 45800 a.u. and 37800 a.u. and 51400 a.u. and 54300 a.u. and 14400 a.u. and 71100 a.u. and 30600 a.u.
COc1ccc(OC)c(C=NOCc2ccc(-c3nc4cc(-c5ccccc5)ccn4c3Nc3ccc(C(=O)O)cc3)cc2)c1N (mixture of isomers),TDP1,"enzyme activity, inhibitor",,"100 µM, unpurified compound",,inhibition,26%
Cc1ccc2c(c1C)NC(=O)C2(O)CC(=O)c1ccc2c(c1)OCO2 (centres unmarked),"ppa (Escherichia coli, UniProt P0A7A9)",enzyme activity,,counter-screen,,Hill slope,-0.95
O=C1c2sc(-c3ccc(N4CCC(F)C4)nc3F)nc2CCN1c1cccnc1 (centres unmarked),"TAR DNA-binding protein 43, aggregated (TARDBP, Homo sapiens, UniProt Q13148)",saturation autoradiography,"human, FTLD-TDP type A brain sections",14.09 nM,,specific binding,111 nM
O=C(O)Cc1cc2c(cc1C(=O)c1ccc(Cl)cc1Cl)OCO2,Gria1,whole-cell patch clamp,HEK-293T,"concentration not given, together with: glutamate",,deactivation time constant,10.2 ± 0.5 ms
N[C@H]1CC[C@H](Nc2nccc(-c3cccnc3Oc3ccc(NC(=O)NC4CC4)c4ccccc34)n2)CC1,"Cyclin-K (CCNK, Homo sapiens, UniProt O75909)",kinobead competition pulldown,HEK293/HCT116 lysate mixture,"10 µM, 1 h, 4 °C",lower = stronger competition,log2 LFQ intensity,21.9 and 22.4 and 22.6 and 22.2
